# Measurements gathered from unrelated publications.
# A part holds a random share of what one study measured. Positions count from the first letter of the parent shown.

# Block 1
# Target: NFE2L1, bZIP domain (human)
# Method: DHFR protein complementation
# Medium: yeast
# Setting: single substitutions, most at no-binding floor
# Baseline: wild-type JUN-FOS pair
# Direction: higher = stronger binding
# Parent: JUN, bZIP domain (human); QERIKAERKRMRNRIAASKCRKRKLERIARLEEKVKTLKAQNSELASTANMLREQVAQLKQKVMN; partner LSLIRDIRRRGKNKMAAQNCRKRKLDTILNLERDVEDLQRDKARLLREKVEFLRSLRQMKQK
Change,binding fitness
I28T,-1.42 natural log
A40R,-1.46 natural log
A49E,-1.52 natural log
L52K,-1.57 natural log
E32N,-1.34 natural log
M51P,-1.54 natural log
K39L,-1.51 natural log
R53N,-1.45 natural log
E32W,-1.51 natural log
E32M,-1.19 natural log
K34A,-1.5 natural log
L45S,-1.58 natural log
A29S,-1.51 natural log
T37W,-1.45 natural log
Q41A,-1.36 natural log
A29R,-1.45 natural log
K36F,-1.56 natural log
L45R,-1.47 natural log
A57R,-1.47 natural log
V35I,-1.55 natural log

# Block 2
# Target: Fragile X messenger ribonucleoprotein 1, C-terminal low-complexity region (Fmr1, Mus musculus, UniProt P35922)
# Method: RNA Bind-n-Seq
# Form: RNA
# Medium: in vitro
# Concentration: 200 nM
# Setting: whole 134-nt RNA, ends assumed
# Together with: 150 mM KCl
# Baseline: input library
# Direction: higher = stronger binding
# All sequences stand within: GGGAGUUCUACAGUCCGACGAUC … UGGAAUUCUCGGGUGUCAAGG
Oligonucleotide,log2 enrichment
UGGCAGCGGCCAUGGACCGCUUCGUUUGGACCAGCGGCCUCCUGGAGAUCAACGAGACCCUGGUGAUCCAGCAGCGCGGGGUGCGAAUCU,-0.738
UGGGAGGUGGAUUUUGUUUAUUUUUUUAGCUCAUUUCCAGGGGUGGGAAUGUUUUUUUAAUAUGUGUCAUGAAUAAAGUUGUUUUUGAAA,0.358
UCCUGUGCUACACAUCGUAUGUACCGAAUCAAAGUGUGUGUGUGAAAUGUGUGUGUGAAAAAAGUAUUAUGUUACGCCGUUCGGAUCUGC,0.0234
CCUGUGCUACACAUCGUAUGUACCGAAUCAAAUUUUUUUAAACCCCCCCAAAUUUUUAAAAAAGUAUUAUGUUACGCCGUUCGGAUCUGC,0.177
CACAGACAACACGCACCCACACAGACACAGAGGGAAGGGGUUUGGAUGGGGACAGGGUGCACAGCAGGGCGGGGUAGGACCCCAGCCCCU,1.18
CCUGUGCUACACAUCGUAUGUACCGAAUCGGGCCCCCCCGGCCCCCCCGGGGCCCCCCCGGAAAGUAUUAUGUUACGCCGUUCGGAUCUG,-0.521
CAAGUCCUGUGCUACACAUCGUAUGUACCGAAUCGGUUUUUUUGGAAAGGUUUGGAAAGUAUUAUGUUACGCCGUUCGGAUCUGCACUUC,-1.03
AGUCCUGUGCUACACAUCGUAUGUACCGAAUCAAACCCAAACCCCCCCAAAUUUAAAAAAGUAUUAUGUUACGCCGUUCGGAUCUGCACU,-0.202
AGUCCUGUGCUACACAUCGUAUGUACCGAAUCGGGGAGGGGAAAGGGGAAAAAGGGGAAAGUAUUAUGUUACGCCGUUCGGAUCUGCACU,0.432
CAAGUCCUGUGCUACACAUCGUAUGUACCGAAUCGGGGAAAGGAAAGGGAAAGGGGAAAGUAUUAUGUUACGCCGUUCGGAUCUGCACUU,0.349
ACCAUGCAGGUGGGAAACUUUGGGAAGUGGGGCAAGGGGGGGAUAGGGAGGGGGGUAACACUUUGGGAACAGGUGGUCCCAGGUCGUUUC,0.416
CAAGUCCUGUGCUACACAUCGUAUGUACCGAAUCGGAAAGGGGAAAGGAAAGGGGAAAGUAUUAUGUUACGCCGUUCGGAUCUGCACUUC,0.137
UAACUUUAGAGGAGGAUCUGAUGGAUAUGGCAGUGGACGUGGAUUUGGGCAUGGCUAUAAUGGGUAUGGAGGAGGACCUGGAGGUGGCAA,0.114
UGUGUCUUGCUGAAUCAGGGCUCUCUUAUCCCUGCCAUCGACUUACAGUGGGAAGAAGAUCUUCACCUGCACAGACCCGGGAACAGUCGG,-0.311

# Block 3
# Target: Sal-like protein 4, full length isoform B (SALL4, Homo sapiens, UniProt Q9UJQ4-2, residues 1-616)
# Method: universal PBM
# Form: double-stranded DNA, one strand shown
# Medium: in vitro
# Concentration: not given
# Setting: 8-mer, flanks averaged, mean of replicates
# Direction: higher = stronger binding
Oligonucleotide,E-score
CGCTAGCG,-0.19
CGGATACC,-0.0849
CAAGGTAA,-0.0306
ACACGAGA,-0.116
GAGACTAA,0.167
ACAGGGAG,-0.214
AAACCCGA,0.148
AACATAAG,0.243
AACCTTAC,0.181
AGTAAGAA,0.0983
AGTGGTAA,0.109
AGAGAGAT,0.0248
CACCAGGA,-0.0751
ATACCAGA,0.123
CGTATTAA,0.229
CGGTACTC,-0.098
CGCACCGA,-0.279
CACTTCTA,0.047
TACGGAGA,-0.0195
CACAATCC,0.00391
ACAATCGG,-0.0182
TATGTCAA,0.358

# Block 4
# Target: Histone acetyltransferase KAT6A, winged helix 1, GST fusion (KAT6A, Homo sapiens, UniProt Q92794, residues 1-85)
# Method: protein binding microarray
# Form: double-stranded DNA, one strand shown
# Medium: in vitro
# Concentration: not given
# Setting: 8-mer, flanks averaged, mean of 2 arrays, mostly near background
# Baseline: not given
# Direction: higher = stronger binding
# Construct (chain): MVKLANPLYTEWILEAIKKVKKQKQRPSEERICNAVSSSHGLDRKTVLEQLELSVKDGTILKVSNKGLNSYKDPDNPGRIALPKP
Oligonucleotide,E-score
CCACCTGC,-0.207
GGACCATA,-0.0885
GATAACAA,-0.137
CATGCAAC,-0.136
ACAGAACC,-0.054
GCATATTA,0.0506
TACTCTCA,-0.215
TGCTTAAA,-0.178
ACTGAGGG,-0.157
CTTTCGCC,0.128
ATAGGAAT,-0.235
TAATCTGA,-0.263
CCCGCCGC,0.46
GCCCCCAA,-0.191
AATGAGGG,-0.268
CACCTGGC,-0.147
ATCTAAAA,-0.183
GACGACCA,-0.23
GCCTGCAC,-0.0172
ACATTTGC,-0.00698
CGATTCCG,0.317
ATAGGCGG,0.321
AGGTAGTG,-0.0423
CAGGTAGG,0.0898
GAACAGTC,-0.108

# Block 5
# Target: RNA binding protein fox-1 homolog 2, RRM domain, GST-SBP tag (RBFOX2, Homo sapiens, UniProt O43251-10, residues 100-194)
# Method: RNA Bind-n-Seq
# Form: RNA
# Medium: in vitro
# Concentration: 365 nM
# Setting: natural RNA segment, single round, ends assumed
# Baseline: no-protein control
# Direction: higher = stronger binding
# All sequences stand within: GGGAGUUCUACAGUCCGACGAUC … UGGAAUUCUCGGGUGCCAA
# Residues (chain): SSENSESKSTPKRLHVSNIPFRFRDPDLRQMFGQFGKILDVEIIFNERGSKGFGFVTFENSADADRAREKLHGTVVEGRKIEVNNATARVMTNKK
Oligonucleotide,RBNS enrichment (R)
CUCUGUGUUUAUGUGUGUGUGUCUGUGUGAGAGAAGAAAAAUCUGUAGAGAAGAGGCACGCUUAUGACUAUUGUUCAAAUACAUAAAAACAGUUAUUUUAAAACAGUCCA,3.34
UCAAUUCUAUGGUCACUCUGAAUUUUCAUGUCAUUAAUCACAUAAAAAUUGAUAAUACCUCAUUCUGUAUUACAAUAUGAUUUUAUUUUGCCAAAGGCAAGACACCUAUA,0.547
AAAAGGCCUCCUCCAGCGGGGCAGGCUGCUCAGUGUGGGUGGCAAGUUGUAGCCCAGCUGGAGGACAGGCCUUUGCUCCCUGGGCAGGUGCCCACUGGUGUCCCAUGGAA,0.234
AAUAGCUCCUCUCACUCUGCCUGGAGAUACUUCCUGCCUCAGAUGAGGAGCCAGAAGAAACAGAGCCCGACUUGAAUGAACUCAGCUCAGAGUUCUAAGGACCAGCAUUC,0.458
CUUAAGCAGGGAAGAUAAGAGACCCUGCUCUCCACAGGUUGGUACAAAGGGGAACCUUGCUUCUGUGGUAGUAGAGGAGCAUUGUGCCUGGAAUUUCAGGAACUAUUGGA,0.337
CUGCUUCUACCUGGCAGAGAUCACACUAGCCCUGGGCCAUCUCCAUUCCCACGGCAUCAUCUACCGGGACCUCAAGCCUGAGAACAUCAUGCUCAGCAGCCAGGGCCACA,0.351
GCUUGGUCAGAGUAGCUAAGCCCUGGUCUUAGGCCUGAGCCUGGAGUCUGCCCCCAUUUCCUUUUCCUAUAAUCCUGCCUUCCAGGGUUCCCCCCUCCCUGAAAUUUGUC,0.649
UUCAUUGUGUUUUCUUCGUGGAUUGUUUUUUCUGCGGGUCAUAUUCAUACCUUCUGAUGAAGUUGUACAACACCAGCAACAUUAUAAUGGCCCUGUAGCUCUGAAUGCUA,0.455
CAGACUGAGAGGCCAGUUGAUCUGCUCUGUUUUAUACCAGUAGCAAUAAAGAUUAUUUUUUGAUACAUCUGUGAGUCCUGUCUGGCAAGAACAUGUCAGAGAACCAGCAG,0.349
GCGCAUAAAAGCCUGCUGGCUCGGGGCGCCUGCCUCCCUGCUCCUCUGUCCUCAAACAGUGAACCCAGGCUGCAGCCUGAGACCUGGACUCUAGCCCCCAUCCAUCCUUC,0.194
UCUGCCCGCUGCCCUCUGUCAUCCCAUUCAAGAUUGUGCCAUACCAGCUGAGGUUUUUCCUCUGUCUCUCUAGGAAUAGGGUCUGUUUCACAGGCCAUUUCUGUGAACCC,0.411
UUUUCAAAAUUGCAGUGCUAAAAGCACACAAUUUCAAGAAAGCCUUCUCUAGUUCCCUGGCUCAGUAGGACAUUUCUUCCACCCACUCCCAGUCCCCCAACACUCCCUUC,0.543

# For quick reference, copied from above (block 2):
Oligonucleotide,log2 enrichment
UGGCAGCGGCCAUGGACCGCUUCGUUUGGACCAGCGGCCUCCUGGAGAUCAACGAGACCCUGGUGAUCCAGCAGCGCGGGGUGCGAAUCU,-0.738
ACCAUGCAGGUGGGAAACUUUGGGAAGUGGGGCAAGGGGGGGAUAGGGAGGGGGGUAACACUUUGGGAACAGGUGGUCCCAGGUCGUUUC,0.416
UGGGAGGUGGAUUUUGUUUAUUUUUUUAGCUCAUUUCCAGGGGUGGGAAUGUUUUUUUAAUAUGUGUCAUGAAUAAAGUUGUUUUUGAAA,0.358
CCUGUGCUACACAUCGUAUGUACCGAAUCAAAUUUUUUUAAACCCCCCCAAAUUUUUAAAAAAGUAUUAUGUUACGCCGUUCGGAUCUGC,0.177
CAAGUCCUGUGCUACACAUCGUAUGUACCGAAUCGGUUUUUUUGGAAAGGUUUGGAAAGUAUUAUGUUACGCCGUUCGGAUCUGCACUUC,-1.03
CCUGUGCUACACAUCGUAUGUACCGAAUCGGGCCCCCCCGGCCCCCCCGGGGCCCCCCCGGAAAGUAUUAUGUUACGCCGUUCGGAUCUG,-0.521
CAAGUCCUGUGCUACACAUCGUAUGUACCGAAUCGGAAAGGGGAAAGGAAAGGGGAAAGUAUUAUGUUACGCCGUUCGGAUCUGCACUUC,0.137
AGUCCUGUGCUACACAUCGUAUGUACCGAAUCGGGGAGGGGAAAGGGGAAAAAGGGGAAAGUAUUAUGUUACGCCGUUCGGAUCUGCACU,0.432
UAACUUUAGAGGAGGAUCUGAUGGAUAUGGCAGUGGACGUGGAUUUGGGCAUGGCUAUAAUGGGUAUGGAGGAGGACCUGGAGGUGGCAA,0.114
AGUCCUGUGCUACACAUCGUAUGUACCGAAUCAAACCCAAACCCCCCCAAAUUUAAAAAAGUAUUAUGUUACGCCGUUCGGAUCUGCACU,-0.202
CACAGACAACACGCACCCACACAGACACAGAGGGAAGGGGUUUGGAUGGGGACAGGGUGCACAGCAGGGCGGGGUAGGACCCCAGCCCCU,1.18
UCCUGUGCUACACAUCGUAUGUACCGAAUCAAAGUGUGUGUGUGAAAUGUGUGUGUGAAAAAAGUAUUAUGUUACGCCGUUCGGAUCUGC,0.0234
